Assay results of several laboratories.
A part holds a random share of what one study measured. Positions count from the first letter of the parent shown.

Study 1
Target: CCND2, cyclin fold, Cln2 fusion (human)
Method: yeast growth competition, sequencing
Sample: yeast
Setting: weak parent motif
Baseline: not given
Reading: higher = stronger binding
Starting sequence: RBL2 docking peptide (human); STTRRRLFVENDS; partner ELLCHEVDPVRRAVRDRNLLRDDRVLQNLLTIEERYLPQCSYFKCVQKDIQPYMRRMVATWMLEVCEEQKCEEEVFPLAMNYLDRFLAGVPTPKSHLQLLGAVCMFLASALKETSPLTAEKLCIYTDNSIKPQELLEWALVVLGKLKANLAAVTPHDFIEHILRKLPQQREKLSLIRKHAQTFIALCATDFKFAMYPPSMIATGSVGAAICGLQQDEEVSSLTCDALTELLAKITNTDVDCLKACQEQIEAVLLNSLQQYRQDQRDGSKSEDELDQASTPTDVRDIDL
Variant	normalised enrichment score
N11L	0.14
S13V	-0.104
N11Q	0.124
V9K	0.186
S13T	0.131
R5W	0.0553
T2E	0.547
E10K	0.163

Study 2
Target: Interferon regulatory factor 5, full length, phosphomimetic (IRF5, Homo sapiens, UniProt Q13568-2, residues 1-514, K96S/S451D/S453D/S456D/S462D)
Method: protein-binding microarray
Molecule type: double-stranded DNA, one strand shown
Sample: in vitro
Concentration: 250 nM
Setting: 60-bp whole probe
Together with: salmon DNA 0.4 mg/ml
Baseline: random background probes
Reading: higher = stronger binding
Constant ends, left off below: GCCTAGCAC … GTCTTGATTCGCTTGACGCTGCTG
Oligonucleotide	log fluorescence
TATAATATATATATTGTTAGGTGCTAG	0.59 z-score
TTAAGTATCCTTTTCCTTTAGTGCTAG	1 z-score
GACGGACAGGGTATCGGGACGTGCTAG	-0.0761 z-score
TTAGGTATTGGTTTCGGTTAGTGCTAG	9.94 z-score
GGACAGTAATGGAGGTATAAGTGCTAG	-0.24 z-score
TCAAGCTTCTTTTTTATACTGTGCTAG	0.467 z-score
TTAGATTTCTGTCTCGATTAGTGCTAG	2.95 z-score
GACGGACTGGTGACTGGGGACGTGCTA	-0.58 z-score
CAGCCGCACAGCATGAGTTCGTGCTAG	-0.919 z-score
CATCATTGCCTATTTTTCCCCGTGCTA	0.742 z-score

Study 3
Target: RNA binding protein fox-1 homolog 2, RRM domain, GST-SBP tag (RBFOX2, Homo sapiens, UniProt O43251-10, residues 100-194)
Method: RNA Bind-n-Seq
Molecule type: RNA
Sample: in vitro
Concentration: 365 nM
Setting: natural RNA segment, single round, ends assumed
Baseline: no-protein control
Reading: higher = stronger binding
Residues (chain): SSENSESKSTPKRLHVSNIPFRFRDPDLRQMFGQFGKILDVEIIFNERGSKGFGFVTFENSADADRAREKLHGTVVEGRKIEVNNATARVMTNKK
Oligonucleotide	RBNS enrichment (R)
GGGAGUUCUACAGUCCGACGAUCAACAGUGUGGUUGAAUACAUUUAAUGCCAGCCAUUGGAAACUAGUUUUAGGCAACCACUCUCAAAAACAGCUUUAGAAUUUAUGCCCAGUUUUCUUGCAUUGAAAGAUAAUGGAAUUCUCGGGUGCCAA	0.253
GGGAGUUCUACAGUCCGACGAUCAGAUAUAUGCACACAGGGUGCAAGUUAAAAGCUACAGAGUGAAAGUUGGUUUGGAUCCUCUUCAUUUCAUUUGUUUAGCUUUUCUGUUAUUUUUCUCUACUUACAUGUAUUGGAAUUCUCGGGUGCCAA	1.12
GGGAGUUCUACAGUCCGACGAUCGGUGCUGACGCUGCCACUGCCCUGUUGUUCAUUGAGAAUGAUUGUUAAAUGACACUCUUCCUUUAGAAUAUAACGGAUCAGUACUCAUGUUUAAUUGCCAUGCUUAAUAAUGGAAUUCUCGGGUGCCAA	0.2
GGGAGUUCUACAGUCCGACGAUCCUCCCUUGAGUGCUCACCCUCCACCUACCAGACUGGAAGCUGACUUUAAGUCCUCUAAUAAAAAUAAUGAGCCCUCCAAGUCCCUCUUGAUAGCUUCUAUUUGUUAGAAGUGGAAUUCUCGGGUGCCAA	0.309
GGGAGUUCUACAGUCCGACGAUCGGCAGUCUCUCACAUCACAGAUGUGGAAAGUAUAAUUUUAUAUUUGUAUUUUCAAAUAAAUAAGUUUGUGAAAGGUUUCCAUCCUCUACUGUGGUCCAGAAAUCAAUGUGUGGAAUUCUCGGGUGCCAA	0.525
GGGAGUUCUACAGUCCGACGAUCCCUCCUGCAGUACCCACACCAUCACCACUGCUUUCUCUUCCAACAGUGAUCUGUAUUCUUAGUUUCAUUAUUUUCUUUUGAUUGAUAUGACACUAUAUAAAAUUUUCAUUUGGAAUUCUCGGGUGCCAA	0.683
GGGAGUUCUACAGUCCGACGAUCAUAAAUAAAAGUAAAUACUAUAAUACAAAGUUCCUUCUGAAAUAAAAGUAGAUCUGGUAAAAAUGUGCGUGCGUUUCGUUCUGAAUGUUCAAUGCUAAUUUUGUUUUAUUUGGAAUUCUCGGGUGCCAA	0.573

Mixed results
Substance	target	assay	system	conditions	how to read	quantity	result
PhoQ, residues 284 288 289 292 302 303 NLGVHL	PhoP, residues 12 14 15 18 19 YHFSH (Escherichia coli, UniProt P23836)	Sort-seq, measured: YFP reporter	E. coli	PhoQ-PhoP variant library, together with: 10 µM Mg2+	baseline: high Mg2+ state, higher = stronger signaling	fold induction	5.68

Some of these lines once more (study 1):
Variant	normalised enrichment score
T2E	0.547
N11Q	0.124
